Measurements collected from several papers.
Every numbered part comes from another study and shows a few of its results, in no order. Substitutions count along the parent as printed.

Sample 1
Target: ABI1, truncated, D143A, DHFR fusion (Arabidopsis thaliana)
Method: DHFR PCA, deep sequencing
Sample: yeast
Notes: methotrexate growth selection, single substitutions
With: (+)-ABA 1.4 µM
Reference: wild-type fitted maximum
Reading: higher = stronger binding
Parent: PYL1, truncated, DHFR fusion (Arabidopsis thaliana); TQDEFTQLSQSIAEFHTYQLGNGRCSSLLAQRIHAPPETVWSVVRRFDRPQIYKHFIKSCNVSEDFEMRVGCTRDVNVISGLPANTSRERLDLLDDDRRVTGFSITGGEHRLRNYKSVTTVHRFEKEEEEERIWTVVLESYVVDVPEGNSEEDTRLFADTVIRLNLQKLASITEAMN
`E64G` — result for “relative binding score”: 45%.
`Q167I` — result for “relative binding score”: 19.4%.
`V44I` — result for “relative binding score”: 38.3%.
Under “relative binding score”, `E128W` is recorded as 31.6%.
For `E130P`, “relative binding score” read 92.4%.
`V62K`: “relative binding score” -12.7%.
`G23N` — result for “relative binding score”: 54.2%.
`G71W` — result for “relative binding score”: 0.57%.
Under “relative binding score”, `V40C` is recorded as -3.13%.

Sample 2
Target: RNA binding protein fox-1 homolog 2, RRM domain, GST-SBP tag (RBFOX2, Homo sapiens, UniProt O43251-10, residues 100-194)
Method: RNA Bind-n-Seq
Molecule type: RNA
Sample: in vitro
Concentration: 365 nM
Notes: natural RNA segment, single round, ends assumed
Reference: no-protein control
Reading: higher = stronger binding
Shared flanks, not repeated: GGGAGUUCUACAGUCCGACGAUC … UGGAAUUCUCGGGUGCCAA
Target sequence (chain): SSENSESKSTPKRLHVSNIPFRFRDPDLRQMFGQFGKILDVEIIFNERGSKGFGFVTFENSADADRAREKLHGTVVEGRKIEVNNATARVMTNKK
`CUUAAAUCUCCAUUCUGUUUGUGGUUGCCCCCUCAACCUCCCCUACACCCUUCCUAUUCUUUUUCAUUCUUCUUGCAGUUCUGGGAGUAAAGCUCCCAGCAUAUUUAGAU` — result for “RBNS enrichment (R)”: 0.414.
For `AAUGUGAUAUUUGUUGACAUUUUCCUGGCUAAUAUUUAAAAUUCAUUGGAAAAGAUUUUCAAAAUUAAUAUAAAGUGCAGAAGUUAAAAAUCUAAUAUUUAGUUGUUUAG`, “RBNS enrichment (R)” read 0.646.
`GAAGUAAGCACAGCCCAUCUCCUGUUCACAUUCUCUAGACCGUCAUCACCUUUGCCCUGCUCUGGGGGACAGACAUGACAGUAAAAGUGUCCCGGGACUCUUUCCGUUCA`: “RBNS enrichment (R)” 0.35.
`GCGUUGAUCAUGGACUACUAAAAUGCCUUCACACAGGAGGCUUUGACUUGCACAAUUCUUUGGGAAGAAACUGCACACCCAUAGGACAGUCGAUAAGGCUGAGUCGGGGA` — result for “RBNS enrichment (R)”: 0.295.
`GGGCUGGCUAGAUGAUAUAGGUGACUGGCACCUAUUAAGAGUAUAUAACAUAAAUACCAUAAAAAGGAGGAAAUAAAGAUAAGUAAACAUCUCAUUUCUCAAAAAAAAAA` — result for “RBNS enrichment (R)”: 1.02.
`UCCCCAAAUGUAAGGACCCAGGUACACUUUCACCCGUGGAAAGCAGUGUCUGUCGAGAGUCUGUUUCCUAUUAAUACUUAUCAAAGCCAUGUGCGAGGGAGGUGGUCAGC` — result for “RBNS enrichment (R)”: 0.27.
`AUGAGGCUGUGGUGUCAGGUUUAGGCCUCUCUCAAGUCAGAAAACCCCGGGCUGAGACCUCCACAGACAAGGGCUCCCCAUGCUGGCCAUUGGCAGGGGCCCAAGAAGUU` — result for “RBNS enrichment (R)”: 0.228.
`CUUCAUGGACCAACUUGCAUUCCAUCAGUUUUAUAUUAGCCUUUCUGCAGUUAGAACAUGGAUGUUUCUUCUUUGAUUAUCAAAAACACAAAAACAGAGAGCAAGCCCGA` — result for “RBNS enrichment (R)”: 0.404.

Sample 3
Target: Histone acetyltransferase KAT6A, winged helix 2, GST fusion (KAT6A, Homo sapiens, UniProt Q92794, residues 85-181)
Method: protein binding microarray
Molecule type: double-stranded DNA, one strand shown
Sample: in vitro
Concentration: not given
Notes: 8-mer, flanks averaged, mean of 2 arrays, mostly near background
Reference: not given
Reading: higher = stronger binding
Target sequence (chain): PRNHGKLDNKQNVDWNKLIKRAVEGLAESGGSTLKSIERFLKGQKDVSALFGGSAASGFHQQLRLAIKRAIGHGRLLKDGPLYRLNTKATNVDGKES
`AGTCTGTA` gave an E-score of -0.284.
`TCGTCCAA` has an E-score of -0.0423.
`ACGAATCG` gave an E-score of 0.0333.
For `AGATTTAC`, the E-score was 0.078.
`AGACCTGA` has an E-score of -0.0339.
With `AGACTTGG` the E-score was -0.175.
`AGAGGAAT` gave an E-score of 0.0114.
For `CCCCATAC`, the E-score was -0.131.
With `AACGACGA` the E-score was 0.0377.
The E-score of `ACCATCGG` is reported as -0.148.
With `CTCAGAAG` the E-score was 0.0893.
For `CATTTATC`, the E-score was -0.0383.
With `GAAGCCGC` the E-score was 0.223.
With `CGCAGATC` the E-score was 0.114.
`GAGTTCCC` gave an E-score of 0.171.

Sample 4
Target: Interferon regulatory factor 7, full length, phosphomimetic (IRF7, Homo sapiens, UniProt Q92985, residues 1-503, S101K/S471D/S472D/S475D/S476D/S477D/S483D/S484D/S487D)
Method: protein-binding microarray
Molecule type: double-stranded DNA, one strand shown
Sample: in vitro
Concentration: 250 nM
Notes: 60-bp whole probe
With: salmon DNA 0.4 mg/ml
Reference: random background probes
Reading: higher = stronger binding
Shared flanks, not repeated: GCCTAGCAC … GTCTTGATTCGCTTGACGCTGCTG
Target sequence (chain): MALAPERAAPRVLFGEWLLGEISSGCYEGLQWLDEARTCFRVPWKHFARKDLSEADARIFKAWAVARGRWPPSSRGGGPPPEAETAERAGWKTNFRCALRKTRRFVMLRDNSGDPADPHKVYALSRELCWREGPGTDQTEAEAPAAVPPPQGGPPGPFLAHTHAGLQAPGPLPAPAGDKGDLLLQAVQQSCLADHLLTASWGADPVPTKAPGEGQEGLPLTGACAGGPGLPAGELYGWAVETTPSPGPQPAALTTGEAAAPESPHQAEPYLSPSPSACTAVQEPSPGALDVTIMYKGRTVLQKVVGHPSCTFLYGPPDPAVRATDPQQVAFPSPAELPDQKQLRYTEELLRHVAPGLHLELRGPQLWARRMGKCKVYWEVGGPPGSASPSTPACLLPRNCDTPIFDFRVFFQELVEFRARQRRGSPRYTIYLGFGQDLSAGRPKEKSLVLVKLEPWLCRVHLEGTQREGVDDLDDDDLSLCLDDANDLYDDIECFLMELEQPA
The log fluorescence of `TCATTTTTAGAAATTTTTACTGTGCTA` is reported as 1.14 z-score.
For `GACAGACTGCTTTTCCTGACGTGCTAG`, the log fluorescence was 0.133 z-score.
The log fluorescence of `TTAGGTTTCCGGACTGGGTTAGTGCTA` is reported as 0.717 z-score.
`TTAGATTTCAGTCTCGAATAGTGCTAG` gave a log fluorescence of 0.854 z-score.
For `TCAGGCTTCTATGTAGTACTGTGCTAG`, the log fluorescence was -0.586 z-score.
`TTGGGTTTCGACTATCGGTTAGTGCTA` has a log fluorescence of 4.18 z-score.
`TGAGAACTGAGACTGGATTAGTGCTAG` gave a log fluorescence of -0.241 z-score.
For `TTAGAACTGGGGTATCGATTTGTGCTA`, the log fluorescence was 1.77 z-score.
`GACGGAATGGGGACTGGGGACGTGCTA` gave a log fluorescence of -0.261 z-score.
For `TCAGGTCTCCTTCTCCTTTAGTGCTAG`, the log fluorescence was 0.492 z-score.
`GACGGTCTCGTACTGGGGACGTGCTAG` has a log fluorescence of 0.213 z-score.
With `TTAGGTCTCGGCCTCGGTTAGTGCTAG` the log fluorescence was 0.851 z-score.
The log fluorescence of `TTAGGTATCGGGACTGGGTGAGTGCTA` is reported as 0.0217 z-score.
For `TTAGATATCGGGTTTTGATTAGTGCTA`, the log fluorescence was 1.1 z-score.
`TTTCATTTTTTTTCATCATTGTGCTAG` has a log fluorescence of 2.14 z-score.
The log fluorescence of `CTAAAACTCTTTATTTAAGCGTGCTAG` is reported as 0.502 z-score.
`GACGGTTTCGGACTGGTGACGTGCTAG` gave a log fluorescence of 4.22 z-score.
`TTAGGTCTCCTTCTCCTCTAGTGCTAG` gave a log fluorescence of 0.65 z-score.
The log fluorescence of `TCACTTTTCTTTTCTTTACTGTGCTAG` is reported as 2.45 z-score.

For quick reference, copied from above (sample 4):
`GACGGTTTCGGACTGGTGACGTGCTAG` gave a log fluorescence of 4.22 z-score.
For `TCAGGCTTCTATGTAGTACTGTGCTAG`, the log fluorescence was -0.586 z-score.
`GACGGTCTCGTACTGGGGACGTGCTAG` has a log fluorescence of 0.213 z-score.
